# Experimental data from different studies.
# Lines come from different studies, so protocols differ. Numbers after ± are the reported error.
# Inward rectifier potassium channel 4: Inward rectifier potassium channel 4 (Homo sapiens, UniProt P48050)
# STS: Steryl-sulfatase (STS, Homo sapiens, UniProt P08842)
# Urease: Urease (Canavalia ensiformis, UniProt P07374)
# Kir1 channel protein: Kir1 channel protein (Aedes aegypti, UniProt L0EQS9)
Substance,target,test,test system,setting,IC50
Cc1cccc(OCC(O)Cn2c(=N)n(Cc3ccccc3)c3ccccc32)c1 (stereo not drawn),Inward rectifier potassium channel 4,"ion flux, inhibitor, fluorescence",,,7.53 µM
[Cl][Yb]([Cl])[Cl],human MMP-2 catalytic domain,inhibitor,,"pH 7.5, 37 °C, 45 min preincubation, together with: DQ-gelatin",5.03 ± 0.17 µM
Angeli's salt,"Glyceraldehyde-3-phosphate dehydrogenase (GAPDH, Oryctolagus cuniculus, UniProt P46406)","enzyme activity, inhibitor, NADH absorbance",,"60 min, pH 7.4, 25 °C",0.4 µM
O=C(CCn1nc(Cc2ccccc2)c2ccccc2c1=O)N1CCCCC1,"Vascular endothelial growth factor receptor 2 (KDR, Homo sapiens, UniProt P35968)","enzyme activity, inhibitor",,,0.0219 µM
COc1cc(C(=O)NS(=O)(=O)c2ccccc2C)ccc1Cc1cn(C)c2ccc(NC(=O)OC3CCCC3)cc12,"Heat shock 70 kDa protein 1A (HSPA1A, Homo sapiens, UniProt P0DMV8)","ATPase activity, inhibitor",,,71 µM
O=C(Nc1nc2ccc(F)cc2s1)[C@H](Cc1c[nH]cn1)NC(=O)[C@@H]1O[C@H]1C(=O)O,"Calpain-1 catalytic subunit (CAPN1, Homo sapiens, UniProt P07384)","inhibitor, FRET",,20 min,> 1 µM
N#Cc1ccc(C(CCc2ccc(OS(N)(=O)=O)cc2)n2cncn2)cc1 (racemic),STS,"enzyme activity, inhibitor",JEG-3,"1 h, together with: [3H]oestrone sulfate",> 10 µM
COc1cccc(OCC(O)Cn2c(=N)n(Cc3ccccc3)c3ccccc32)c1 (stereo not drawn),Inward rectifier potassium channel 4,"ion flux, inhibitor, fluorescence",,,3.13 µM
COc1ccc(-c2nnc3n2N=C(c2ccc([N+](=O)[O-])cc2)CS3)cc1,Urease,"enzyme activity, inhibitor",,,6.52 µM
CC(=O)Nc1ccc(O)cn1,"Prostaglandin G/H synthase 1 (PTGS1, Ovis aries, UniProt P05979)","enzyme activity, inhibitor",,pH 8,399 µM
O=c1cc(-c2cccc3ccccc23)[nH][nH]1,"Alkaline phosphatase, tissue-nonspecific isozyme (ALPL, Homo sapiens, UniProt P05186)","enzyme activity, inhibitor, luminescence",,"together with: 50 µM CDP-star, 100 mM DEA",2.88 ± 0.086 µM
C#CCOc1ccc(-c2cc(=O)c3ccccc3o2)cc1,"Cytochrome P450 2B1 (Cyp2b1, Rattus norvegicus, UniProt P00176)","enzyme activity, inhibitor",supersomes,together with: pentoxyresorufin 5 µM,> 10 µM
NC(=O)N1c2ccccc2C[C@H](O)c2ccccc21,"Voltage-dependent T-type calcium channel subunit alpha-1H (CACNA1H, Homo sapiens, UniProt O95180)","calcium current, inhibitor, whole-cell patch clamp",HEK293,low-affinity component,62.6 µM
[Na+].[Na+].[Na+].[O]=[V]([O-])([O-])[O-],"Tyrosine-protein phosphatase non-receptor type 2 (PTPN2, Homo sapiens, UniProt P17706)","enzyme activity, inhibitor, absorbance",,,2.4 µM
S=C(Nc1ccc(I)cc1)N1CCc2ccccc2C1,Urease,"enzyme activity, inhibitor, absorbance",,,50.6 µM
CCc1oc2ccccc2c1C(=O)c1cc(Br)c(OC)c(Br)c1,"Solute carrier family 22 member 12 (SLC22A12, Homo sapiens, UniProt Q96S37)",,human cells,,1.2 µM
O=[N+]([O-])c1ccc(N2CCN(S(=O)(=O)c3ccc(F)cc3)CC2)cc1NCc1nc2ccccc2o1,Kir1 channel protein,"ion flux, inhibitor, fluorescence",,,6.12 µM
CC(C)C[C@H](NC(=O)[C@H](CC(N)=O)NC(=O)[C@H](CC(C)C)NC(=O)[C@@H](NC(=O)[C@@H](NC(=O)[C@@H]1CCCN1C(=O)[C@H](CCCNC(=N)N)NC(=O)[C@H](CCCCN)NC(=O)[C@@H]1CCCN1C(=O)[C@H](CCCNC(=N)N)NC(=O)[C@H](CCCNC(=N)N)NC(=O)[C@H](CCCNC(=N)N)NC(=O)[C@H](CCCNC(=N)N)NC(=O)[C@H](CCC(N)=O)NC(=O)[C@H](CCCNC(=N)N)NC(=O)[C@H](CCCNC(=N)N)NC(=O)[C@H](CCCCN)NC(=O)[C@H](CCCCN)NC(=O)[C@H](CCCNC(=N)N)NC(=O)CNC(=O)[C@@H](N)Cc1ccc(O)cc1)[C@@H](C)O)[C@@H](C)O)C(=O)N[C@@H](Cc1ccccc1)C(N)=O,"Mitogen-activated protein kinase 8 (MAPK8, Homo sapiens, UniProt P45983)","enzyme activity, inhibitor",,,0.043 µM
COc1cc(/C=N/NC(=O)c2nnn(Cc3nc4ccccc4[nH]3)c2C)ccc1O,DNA,"DNA binding, methyl green displacement",,,42 ± 2.1 µM
[Cl-].[Cl-].[Zn+2],"Voltage-gated hydrogen channel 1 (HVCN1, Homo sapiens, UniProt Q96D96)","proton current, inhibitor, whole-cell voltage clamp",human cells,"pH 6.5, test pulse 100 mV",3.8 µM
COc1cc(C2C(C#N)=C(N)Oc3c2c(=O)[nH]c2ccccc32)ccc1OCc1cn(Cc2ccc(Cl)cc2)nn1 (stereo not drawn),"Alpha-glucosidase MAL12 (MAL12, Saccharomyces cerevisiae S288c, UniProt P53341)",enzyme activity,,,9.9 ± 0.5 µM
CC(C)N(C)c1nc2cc(C(=O)O)ccc2nc1-c1ccc(F)cc1,"PAS domain-containing serine/threonine-protein kinase (PASK, Homo sapiens, UniProt Q96RG2)","phosphorylation in cells, inhibitor, ELISA",,,~1 µM
O=c1oc2c(O)c(O)cc3c(=O)oc4c(O)c(O)cc1c4c23,"DNA oxidative demethylase ALKBH2 (ALKBH2, Homo sapiens, UniProt Q6NS38)","3-methylcytosine repair, inhibitor, HPLC",,"1 h, 37 °C, together with: ssDNA 16mer 5 µM",25.5 µM
O=C(NNC(=O)c1ccc(CNS(=O)(=O)c2ccc(F)c(Cl)c2)cc1)c1ccccc1,"Glutamate NMDA receptor; Grin1/Grin2a (Grin1/Grin2a, Rattus norvegicus, UniProt P35439+Q00959, G786D)","ion current, two-electrode voltage clamp",,oocytes,1.4 µM
N=c1c2ncn3c2ncn1[C@@H]1O[C@H](COP(=O)(O)OP(=O)(O)OC[C@H]2O[C@@H]3[C@H](O)[C@@H]2O)[C@@H](O)[C@H]1O,"NAD(+) hydrolase SARM1 (SARM1, Homo sapiens, UniProt Q6SZW1)","enzyme activity, inhibitor, fluorescence",,with preincubation,> 1500 µM
Cc1cc(OCC(O)Cn2c(=N)n(Cc3ccccc3)c3ccccc32)ccc1Br (stereo not drawn),"Inward rectifier potassium channel 13 (KCNJ13, Homo sapiens, UniProt O60928, M125R)","ion flux, inhibitor",,,6.1 µM
O=C(/C=C/c1cccc(S(=O)(=O)Nc2ccccc2)c1)NO,histone deacetylase Plasmodium falciparum,,"Plasmodium falciparum, 3D7, nuclear extract",together with: Ac-RGK(Ac)-AMC substrate,0.215 ± 0.0153 µM
Nc1ncnc2c1ncn2[C@@H]1O[C@H](CSCC[C@H](N)C(=O)O)[C@@H](O)[C@H]1O,"Histone-lysine N-methyltransferase 2A, tetrameric core complex (KMT2A, Homo sapiens, UniProt Q03164)","FL-NAH displacement, fluorescence polarization",,"30 min, tetrameric complex, together with: 50 nM FL-NAH",0.3 ± 0.1 µM
Cc1cc(OCC(=O)N/N=C/c2ccc(OCc3cn(Cc4ccc(Cl)cc4)nn3)cc2)c2c(C)cc(=O)oc2c1,Urease,"enzyme activity, inhibitor",,,7.5 ± 0.54 µM
CCCN(CCC)c1ccc(C=O)cc1,"Aldehyde dehydrogenase 1A1 (Aldh1a1, Mus musculus, UniProt P24549)","enzyme activity, inhibitor, spectrophotometry",purified mouse liver enzyme,"pH 8.4, together with: all-trans retinal 1-10 µM, 1 mM NAD",0.11 ± 0.02 µM
Cc1ccc(Oc2cccc(CC(=O)N3CCNc4nc(C(F)(F)F)ccc4[C@H]3CC(=O)O)c2)cn1,"Gastrin-releasing peptide receptor (Rattus norvegicus, UniProt P52500)","ligand displacement, radioligand",,,> 3 µM
COc1ccccc1OCC(O)Cn1c(=N)n(Cc2ccccc2)c2ccccc21 (stereo not drawn),Inward rectifier potassium channel 4,"ion flux, inhibitor, fluorescence",,,3.6 µM
OCc1ccc(-c2nn(Cc3ccccc3)c3ccccc23)o1,"Potassium channel subfamily K member 18 (KCNK18, Homo sapiens, UniProt Q7Z418)","ion flux, inhibitor",,,16.9 µM
Cn1ncc(Nc2ccc3c(c2)CCN(CCCCCNC(=O)COc2cccc4c2C(=O)N(C2CCC(=O)NC2=O)C4=O)C3)c(Cl)c1=O (stereo not drawn),"Chromatin remodeling regulator CECR2, bromodomain (CECR2, Homo sapiens, UniProt Q9BXF3)","binding, AlphaScreen",,"bromodomain, together with: H4 acetylated peptide, 100 nM",0.053 µM
C[C@]12CC[C@@H]3c4cc(OC(F)F)c(OS(N)(=O)=O)cc4CC[C@H]3[C@@H]1CC[C@@H]2OS(N)(=O)=O,STS,"enzyme activity, inhibitor",,lysate,0.044 µM
O=C1C[C@@H](c2ccc(O)cc2)Oc2cc(O)cc(O)c21,"Solute carrier organic anion transporter family member 2B1 (SLCO2B1, Homo sapiens, UniProt O94956)","transporter uptake, inhibitor, radiometric",MDCK-II,"3 min, pH 6",20 µM
CC(Nc1cc(N2CCN(S(=O)(=O)c3ccc(F)cc3)CC2)ccc1[N+](=O)[O-])c1ncco1 (stereo not drawn),Kir1 channel protein,"ion flux, inhibitor, fluorescence",,,0.905 µM
N=c1n(Cc2ccccc2)c2ccccc2n1CC(O)COc1ccccc1Cl (stereo not drawn),Inward rectifier potassium channel 4,"ion flux, inhibitor, fluorescence",,,4.95 µM
O=C(CCCCCCC(=O)Nc1ccc([C@H]2O[C@@H](CSc3nc(-c4ccccc4)c(-c4ccccc4)o3)C[C@@H](c3ccc(CO)cc3)O2)cc1)NO,HDAC (Lucilia cuprina egg nuclear extract),"enzyme activity, inhibitor, fluorometric",,,26 µM

# Repeated from above:
Substance,target,test,test system,setting,IC50
O=C1C[C@@H](c2ccc(O)cc2)Oc2cc(O)cc(O)c21,"Solute carrier organic anion transporter family member 2B1 (SLCO2B1, Homo sapiens, UniProt O94956)","transporter uptake, inhibitor, radiometric",MDCK-II,"3 min, pH 6",20 µM
CC(Nc1cc(N2CCN(S(=O)(=O)c3ccc(F)cc3)CC2)ccc1[N+](=O)[O-])c1ncco1 (stereo not drawn),Kir1 channel protein,"ion flux, inhibitor, fluorescence",,,0.905 µM
